{"data": "Experimental data from different studies", "note": "Every numbered part comes from another study and shows a few of its results, in no order. Substitutions count along the parent as printed.", "chain of UniProt Q84WU6 (whole entry, looked up)": "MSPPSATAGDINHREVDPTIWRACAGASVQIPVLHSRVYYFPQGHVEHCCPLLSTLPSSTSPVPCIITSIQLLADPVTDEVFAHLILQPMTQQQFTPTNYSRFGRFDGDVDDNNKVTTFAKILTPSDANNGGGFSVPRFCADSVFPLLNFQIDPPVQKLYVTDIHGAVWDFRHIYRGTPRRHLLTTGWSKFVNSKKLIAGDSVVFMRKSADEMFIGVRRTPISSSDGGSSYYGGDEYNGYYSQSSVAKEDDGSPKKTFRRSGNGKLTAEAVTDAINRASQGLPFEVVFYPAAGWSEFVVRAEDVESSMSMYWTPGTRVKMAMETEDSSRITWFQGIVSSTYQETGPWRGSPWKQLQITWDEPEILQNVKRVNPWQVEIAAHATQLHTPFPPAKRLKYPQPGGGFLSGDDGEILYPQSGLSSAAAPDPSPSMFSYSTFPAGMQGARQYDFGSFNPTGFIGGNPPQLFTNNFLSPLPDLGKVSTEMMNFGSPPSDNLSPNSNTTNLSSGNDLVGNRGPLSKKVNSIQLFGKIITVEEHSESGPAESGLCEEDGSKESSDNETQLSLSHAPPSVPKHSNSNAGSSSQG", "chain of UniProt Q8H174 (whole entry, looked up)": "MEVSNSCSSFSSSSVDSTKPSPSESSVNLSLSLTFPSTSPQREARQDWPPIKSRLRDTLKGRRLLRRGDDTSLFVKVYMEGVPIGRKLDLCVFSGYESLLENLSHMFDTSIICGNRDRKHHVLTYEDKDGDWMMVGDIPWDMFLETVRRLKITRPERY", "chain of UniProt Q9C5X0 (whole entry, looked up)": "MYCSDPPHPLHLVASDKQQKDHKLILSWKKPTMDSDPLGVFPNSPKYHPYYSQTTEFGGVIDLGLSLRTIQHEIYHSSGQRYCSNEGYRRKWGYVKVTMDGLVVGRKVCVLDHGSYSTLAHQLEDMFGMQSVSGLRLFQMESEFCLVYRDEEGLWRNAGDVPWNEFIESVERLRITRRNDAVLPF", "chain of UniProt Q94JM3 (whole entry, looked up)": "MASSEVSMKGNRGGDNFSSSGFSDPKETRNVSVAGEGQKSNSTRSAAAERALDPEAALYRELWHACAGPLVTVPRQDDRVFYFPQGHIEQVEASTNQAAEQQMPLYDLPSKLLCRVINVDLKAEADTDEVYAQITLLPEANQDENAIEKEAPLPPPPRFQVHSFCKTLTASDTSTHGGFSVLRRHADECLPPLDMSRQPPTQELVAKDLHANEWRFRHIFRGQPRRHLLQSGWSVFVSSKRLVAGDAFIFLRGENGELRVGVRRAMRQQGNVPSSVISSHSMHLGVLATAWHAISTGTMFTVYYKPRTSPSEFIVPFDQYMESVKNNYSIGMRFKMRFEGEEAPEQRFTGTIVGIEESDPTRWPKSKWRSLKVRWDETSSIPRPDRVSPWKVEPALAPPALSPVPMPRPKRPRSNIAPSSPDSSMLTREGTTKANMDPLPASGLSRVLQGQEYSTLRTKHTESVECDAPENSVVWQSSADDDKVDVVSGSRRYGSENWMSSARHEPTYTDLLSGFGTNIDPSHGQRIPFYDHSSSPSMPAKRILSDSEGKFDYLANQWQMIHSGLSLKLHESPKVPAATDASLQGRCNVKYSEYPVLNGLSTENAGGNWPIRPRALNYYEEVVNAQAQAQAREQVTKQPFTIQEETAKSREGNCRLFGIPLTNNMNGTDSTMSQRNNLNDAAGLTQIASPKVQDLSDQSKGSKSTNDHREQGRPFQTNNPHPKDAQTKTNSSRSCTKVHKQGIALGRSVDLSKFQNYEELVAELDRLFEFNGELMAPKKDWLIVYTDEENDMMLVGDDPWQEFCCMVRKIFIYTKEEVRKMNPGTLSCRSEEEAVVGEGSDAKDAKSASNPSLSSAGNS", "chain of UniProt Q9ZSY8 (whole entry, looked up)": "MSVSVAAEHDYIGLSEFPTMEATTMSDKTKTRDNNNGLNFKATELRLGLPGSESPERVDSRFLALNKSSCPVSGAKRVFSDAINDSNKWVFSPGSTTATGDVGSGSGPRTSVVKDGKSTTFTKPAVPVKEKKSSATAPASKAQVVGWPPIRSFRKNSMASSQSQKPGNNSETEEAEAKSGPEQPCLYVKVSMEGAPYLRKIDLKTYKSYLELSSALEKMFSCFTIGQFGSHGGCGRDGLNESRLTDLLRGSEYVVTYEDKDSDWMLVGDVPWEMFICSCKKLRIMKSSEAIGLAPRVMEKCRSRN", "chain of UniProt O24408 (whole entry, looked up)": "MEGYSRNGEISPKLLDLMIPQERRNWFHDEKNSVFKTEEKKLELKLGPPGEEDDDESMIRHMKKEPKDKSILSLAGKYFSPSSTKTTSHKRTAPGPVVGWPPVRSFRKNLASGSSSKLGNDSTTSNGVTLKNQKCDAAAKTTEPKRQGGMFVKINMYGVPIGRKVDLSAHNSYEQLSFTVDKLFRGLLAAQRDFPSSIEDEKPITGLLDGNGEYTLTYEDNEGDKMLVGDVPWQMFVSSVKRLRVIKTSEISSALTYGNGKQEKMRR"}
{"data": "Block 1", "target": "CCNA1, cyclin fold, Cln2 fusion (human)", "method": "yeast growth competition, sequencing", "medium": "yeast", "notes": "weak parent motif", "relative to": "not given", "direction": "higher = stronger binding", "starting sequence": "SAMHD1 docking peptide (human); ASKSRVQLFKDDP; partner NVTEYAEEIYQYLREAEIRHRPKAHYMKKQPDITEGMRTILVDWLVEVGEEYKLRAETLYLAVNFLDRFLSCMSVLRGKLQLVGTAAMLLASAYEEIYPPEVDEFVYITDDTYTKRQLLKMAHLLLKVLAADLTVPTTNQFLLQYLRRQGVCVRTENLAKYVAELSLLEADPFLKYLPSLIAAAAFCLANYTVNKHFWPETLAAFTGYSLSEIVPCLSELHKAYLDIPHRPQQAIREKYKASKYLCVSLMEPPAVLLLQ"}
{"Variant": "ASRSRVQLFKDDP [K3R]", "normalised enrichment score": 0.3}
{"Variant": "ASKSYVQLFKDDP [R5Y]", "normalised enrichment score": -0.231}
{"Variant": "ASKSRVQLFKTDP [D11T]", "normalised enrichment score": 0.126}
{"Variant": "ASKSEVQLFKDDP [R5E]", "normalised enrichment score": -0.0359}
{"Variant": "ASKSRVQPFKDDP [L8P]", "normalised enrichment score": 0.25}
{"Variant": "ASKMRVQLFKDDP [S4M]", "normalised enrichment score": 0.496}
{"Variant": "ASKSRVQLFKKDP [D11K]", "normalised enrichment score": 0.466}
{"Variant": "ASKSRVQLFKDNP [D12N]", "normalised enrichment score": 0.395}
{"Variant": "ATKSRVQLFKDDP [S2T]", "normalised enrichment score": 0.43}
{"Variant": "ASKSRVQHFKDDP [L8H]", "normalised enrichment score": -0.00752}
{"Variant": "ASKSRVWLFKDDP [Q7W]", "normalised enrichment score": -0.0496}
{"Variant": "ASKSRVQLRKDDP [F9R]", "normalised enrichment score": 0.339}
{"Variant": "ASKYRVQLFKDDP [S4Y]", "normalised enrichment score": 0.356}
{"Variant": "ASKSRVVLFKDDP [Q7V]", "normalised enrichment score": 0.115}
{"Variant": "ASKSRVQLFKDSP [D12S]", "normalised enrichment score": 0.0419}
{"Variant": "ASESRVQLFKDDP [K3E]", "normalised enrichment score": -0.0795}
{"Variant": "ASKSRVQLFQDDP [K10Q]", "normalised enrichment score": 0.389}
{"Variant": "ASLSRVQLFKDDP [K3L]", "normalised enrichment score": 0.359}
{"Variant": "ASKSRVQLFKVDP [D11V]", "normalised enrichment score": 0.205}
{"Variant": "ASKSRVQLYKDDP [F9Y]", "normalised enrichment score": 0.31}
{"Variant": "ASKSRVQLFMDDP [K10M]", "normalised enrichment score": 0.116}
{"Variant": "AGKSRVQLFKDDP [S2G]", "normalised enrichment score": 0.137}
{"Variant": "ASKSTVQLFKDDP [R5T]", "normalised enrichment score": 0.215}
{"Variant": "ASKLRVQLFKDDP [S4L]", "normalised enrichment score": 0.623}
{"Variant": "ASKSRVQLFKDFP [D12F]", "normalised enrichment score": -0.221}
{"data": "Block 2", "target": "ABI1, truncated, D143A, DHFR fusion (Arabidopsis thaliana)", "method": "DHFR PCA, deep sequencing", "medium": "yeast", "notes": "methotrexate growth selection, single substitutions", "with": "(+)-ABA 17 µM", "relative to": "wild-type fitted maximum", "direction": "higher = stronger binding", "starting sequence": "PYL1, truncated, DHFR fusion (Arabidopsis thaliana); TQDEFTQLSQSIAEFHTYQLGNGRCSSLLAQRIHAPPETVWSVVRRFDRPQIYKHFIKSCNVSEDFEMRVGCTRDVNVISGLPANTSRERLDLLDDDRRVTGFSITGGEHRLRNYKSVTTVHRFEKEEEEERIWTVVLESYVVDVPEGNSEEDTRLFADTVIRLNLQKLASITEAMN"}
{"Variant": "P36Q", "relative binding score [%]": 65.1}
{"Variant": "L94G", "relative binding score [%]": -15.8}
{"Variant": "G107K", "relative binding score [%]": 15.7}
{"Variant": "S117W", "relative binding score [%]": -10.1}
{"Variant": "V137S", "relative binding score [%]": -5.31}
{"Variant": "E4K", "relative binding score [%]": 69.5}
{"Variant": "N177V", "relative binding score [%]": 88.4}
{"Variant": "K58Q", "relative binding score [%]": 76.3}
{"Variant": "L112P", "relative binding score [%]": 16.6}
{"Variant": "L169A", "relative binding score [%]": -19.8}
{"Variant": "V136W", "relative binding score [%]": 63.8}
{"Variant": "S42E", "relative binding score [%]": 87}
{"Variant": "D75S", "relative binding score [%]": 84.6}
{"Variant": "T17M", "relative binding score [%]": 59.4}
{"Variant": "V121W", "relative binding score [%]": -0.168}
{"Variant": "S140M", "relative binding score [%]": -8.29}
{"Variant": "R111I", "relative binding score [%]": 7.62}
{"Variant": "L28C", "relative binding score [%]": 59.9}
{"Variant": "L164N", "relative binding score [%]": 67.5}
{"data": "Block 3", "target": "Histone acetyltransferase KAT6A, both winged helices, GST fusion (KAT6A, Homo sapiens, UniProt Q92794, residues 1-181)", "method": "protein binding microarray", "molecule type": "double-stranded DNA, one strand shown", "medium": "in vitro", "concentration": "not given", "notes": "8-mer, flanks averaged, mean of 2 arrays, mostly near background", "relative to": "not given", "direction": "higher = stronger binding", "Target sequence (chain)": "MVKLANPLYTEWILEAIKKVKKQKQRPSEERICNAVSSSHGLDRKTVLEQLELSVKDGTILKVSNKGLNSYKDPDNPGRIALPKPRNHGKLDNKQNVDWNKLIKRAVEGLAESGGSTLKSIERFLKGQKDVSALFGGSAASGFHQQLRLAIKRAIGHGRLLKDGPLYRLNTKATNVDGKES"}
{"Sequence": "AGCGGGGG", "E-score": 0.016}
{"Sequence": "AATGTAGC", "E-score": -0.185}
{"Sequence": "AAGACATT", "E-score": 0.0815}
{"Sequence": "GTAAGTTA", "E-score": -0.0809}
{"Sequence": "TATGTCCA", "E-score": -0.0244}
{"Sequence": "GCTGCCAA", "E-score": -0.155}
{"Sequence": "GTAACAAA", "E-score": -0.0981}
{"Sequence": "CCACCGTA", "E-score": 0.0617}
{"Sequence": "AACATTAT", "E-score": 0.0222}
{"Sequence": "ATCGTGGC", "E-score": -0.0264}
{"Sequence": "AGATCCAA", "E-score": -0.216}
{"Sequence": "CAGTGGTA", "E-score": -0.146}
{"Sequence": "CACGTTGG", "E-score": -0.231}
{"Sequence": "CATCCCGC", "E-score": 0.232}
{"Sequence": "CAGTGAGG", "E-score": -0.138}
{"Sequence": "CGTACATC", "E-score": 0.0827}
{"Sequence": "ATCCTCGA", "E-score": -0.127}
{"Sequence": "CCAGGCCC", "E-score": -0.152}
{"Sequence": "GATCCCCC", "E-score": -0.109}
{"Sequence": "TGATTGAA", "E-score": -0.0127}
{"Sequence": "AAAGAAAT", "E-score": -0.26}
{"Sequence": "CATGTGTC", "E-score": 0.0324}
{"Sequence": "AAAGTCCC", "E-score": -0.0572}
{"Sequence": "AGCATTTG", "E-score": -0.114}
{"Sequence": "CGAGGGAC", "E-score": 0.0649}
{"data": "Block 4", "target": "Interferon regulatory factor 5, full length, phosphomimetic (IRF5, Homo sapiens, UniProt Q13568-2, residues 1-514, S451D/S453D/S456D/S462D)", "method": "protein-binding microarray", "molecule type": "double-stranded DNA, one strand shown", "medium": "in vitro", "concentration": "940 nM top", "notes": "60-bp whole probe", "with": "salmon DNA 0.4 mg/ml", "relative to": "random background probes", "direction": "higher = stronger binding", "shared flanks, not repeated": "GCCTAGCAC … GTCTTGATTCGCTTGACGCTGCTG"}
{"Sequence": "TCATGTTTCTCAAATGTTACTGTGCTA", "fitted relative affinity [z-score]": 0.917}
{"Sequence": "GACGGTATGGACTTTCGGGACGTGCTA", "fitted relative affinity [z-score]": 0.287}
{"Sequence": "TCAGATCTCAGTATCGATTAGTGCTAG", "fitted relative affinity [z-score]": 4.6}
{"Sequence": "TTGATAATTTTTTTCTAAGTGTGCTAG", "fitted relative affinity [z-score]": 0.14}
{"Sequence": "TTAGGACTGGGGTTTCAGTTAGTGCTA", "fitted relative affinity [z-score]": 1.68}
{"Sequence": "TTAGGTTTCGATTATCGGTTAGTGCTA", "fitted relative affinity [z-score]": 13.5}
{"Sequence": "TTAGGTAACGACTATCGGTTAGTGCTA", "fitted relative affinity [z-score]": 0.0531}
{"Sequence": "TTAGAACTGGGGTATCGATGAGTGCTA", "fitted relative affinity [z-score]": 1.87}
{"Sequence": "GACGGTATCGGTATCGGGTCGTGCTAG", "fitted relative affinity [z-score]": 10.3}
{"Sequence": "AACGGTTTCGGTATCGGGACGTGCTAG", "fitted relative affinity [z-score]": 12.9}
{"Sequence": "GACGGTTTCGGACTGGGGGCGTGCTAG", "fitted relative affinity [z-score]": 8.16}
{"Sequence": "TTAGCTTTCCTTTTCCTTTAGTGCTAG", "fitted relative affinity [z-score]": 1.19}
{"Sequence": "GACGAACTGAGGTATCGAGACGTGCTA", "fitted relative affinity [z-score]": 0.516}
{"Sequence": "ATATGTATATATGTGTATATGTGCTAG", "fitted relative affinity [z-score]": -0.107}
{"Sequence": "CCAATTCTCTTTTCACTTTCGTGCTAG", "fitted relative affinity [z-score]": 2.9}
{"Sequence": "TCACGTAAGCAAAAATGACTGTGCTAG", "fitted relative affinity [z-score]": -0.6}
{"Sequence": "GACGATATCAGACTGGAGTCGTGCTAG", "fitted relative affinity [z-score]": -0.677}
{"Sequence": "GACGAACTGGGGTATCGAGCCGTGCTA", "fitted relative affinity [z-score]": 0.319}
{"Sequence": "CAAGTTACGGAATTTCCCTCTGTGCTA", "fitted relative affinity [z-score]": 0.0692}
{"Sequence": "GACGGTATCGGTACTGGGGACGTGCTA", "fitted relative affinity [z-score]": 7.23}
{"Sequence": "TTAGGTTTCAGACTGGGTTAGTGCTAG", "fitted relative affinity [z-score]": 2.12}
{"Sequence": "GACGGTTTCGACACTAGGGACGTGCTA", "fitted relative affinity [z-score]": 6.67}
{"Sequence": "GACGATCTCAGTTTCGACACGTGCTAG", "fitted relative affinity [z-score]": 4.87}
{"Sequence": "GACGATTCCAGTCTCGAGACGTGCTAG", "fitted relative affinity [z-score]": 1.46}
{"Sequence": "TTAGGTTTCAGTATCGGTTAGTGCTAG", "fitted relative affinity [z-score]": 8.52}
{"data": "Block 5", "Molecule": "B1 (IAA10)", "method": "two-hybrid", "direction": "higher = firmer interaction", "B1": "IAA10 (Arabidopsis thaliana, UniProt Q38828); chain MNGLQEVCSSSGSVMIGLPAEEDENAAHSSEDSSCPDESVSETELDLALGLSIGRRKVRSSLSSSSSSLTRESGTKRSADSSPAAASNATRQVAVGWPPLRTYRINSLVNQAKSLATEGGLSSGIQKETTKSVVVAAKNDDACFIKSSRTSMLVKVTMDGVIIGRKVDLNALDSYAALEKTLDLMFFQIPSPVTRSNTQGYKTIKETCTSKLLDGSSEYIITYQDKDGDWMLVGDVPWQMFLGSVTRLRIMKTSIGAGVGK"}
{"partner": "ARF2 727-859 (Arabidopsis thaliana, UniProt Q94JM3)", "scale": "relative to: out of 4 tests", "positive tests": 2}
{"partner": "IAA27 (Arabidopsis thaliana, UniProt Q9ZSY8)", "scale": "relative to: out of 4 tests", "positive tests": 3}
{"partner": "IAA31 (Arabidopsis thaliana, UniProt Q8H174)", "scale": "relative to: out of 4 tests", "positive tests": 4}
{"partner": "IAA18 (Arabidopsis thaliana, UniProt O24408)", "scale": "relative to: out of 4 tests", "positive tests": 4}
{"partner": "ARF17 (Arabidopsis thaliana, UniProt Q84WU6)", "conditions": "weak activation fusion", "scale": "relative to: out of 3 tests", "positive tests": 0}
{"partner": "IAA34 (Arabidopsis thaliana, UniProt Q9C5X0)", "scale": "relative to: out of 4 tests", "positive tests": 3}
{"note": "A few entries again (block 2):"}
{"Variant": "S140M", "relative binding score [%]": -8.29}
{"Variant": "L164N", "relative binding score [%]": 67.5}
{"Variant": "R111I", "relative binding score [%]": 7.62}
{"Variant": "S42E", "relative binding score [%]": 87}
{"Variant": "E4K", "relative binding score [%]": 69.5}
{"Variant": "G107K", "relative binding score [%]": 15.7}
{"Variant": "K58Q", "relative binding score [%]": 76.3}
{"Variant": "V137S", "relative binding score [%]": -5.31}
{"Variant": "V121W", "relative binding score [%]": -0.168}
{"Variant": "D75S", "relative binding score [%]": 84.6}
